Earlier results as cited in several papers.
Protocols differ between the studies behind these lines. Numbers after ± are the reported error. In brackets after ≈: the same amount, converted by molar mass.

| Structure (SMILES) | target or system | test | test system | setting | how to read | endpoint | result |
| --- | --- | --- | --- | --- | --- | --- | --- |
| Cc1ccc(/N=N/c2c(C)c(C(=O)Nc3ccccc3)c(N)n(-c3ccccc3)c2=O)cc1 | Salmonella typhimurium |  |  |  |  | MIC | 1.9 µg/mL (≈ 4.34 µM) |
| CC(=O)NCCCOc1cc(F)c(-c2c(Cl)nc3ncnn3c2N[C@@H](C)C(F)(F)F)c(F)c1 | HEK293 |  |  | 10 µM, 4 h, unit not given | relative to: vehicle (DMSO) | acetylated α-tubulin level | 0.99 ± 0.4 |
| CCCCCCCCCCCCCCCCOCCOP1(=O)COC(Cn2cnc(N)nc2=O)CO1 (centres unmarked) | human cytomegalovirus |  |  |  | relative to: cytotoxicity over antiviral activity | selectivity index | ≥ 24600 |
| CNC(=O)c1ccccc1Oc1nc(Nc2cc(OC)c(OC)c(OC)c2)ncc1Br | AMPK |  |  | 1 µM |  | inhibition | 80% |
| O=C(Nc1ccccc1-c1ccc(Cl)cc1)c1nccnc1C(F)(F)F | Botrytis cinerea |  | cucumber |  |  | EC80 | 2 to 10 mg a.i./L |
| C=CC(OS(=O)(=O)O)c1ccc(OC)cc1 (centres unmarked) |  |  | male rat, liver | sulfonation |  | catalytic efficiency | 3 mL/h/g liver |
| C[C@@H](Nc1c(-c2c(F)cc(OCCCO)cc2F)c(Cl)nc2ncnn12)C(C)(C)C | HEK293 |  |  | 1 µM, 4 h, unit not given | relative to: vehicle (DMSO) | acetylated α-tubulin level | 9.17 ± 0.13 |
| CC#N.Cc1ccc(O)c(CN(CCN(Cc2ccccn2)Cc2ccccn2)Cc2ccccn2)c1.[Mn+2] |  |  |  | pH 4.8, 298 K |  | water exchange rate constant | 1.9e+07 s⁻¹ |
| CN(C)CCCOc1cc(F)c(-c2c(Cl)nc3ncnn3c2NCC(C)(C)C)c(F)c1 | HEK293 |  |  | 1 µM, 4 h, unit not given | relative to: vehicle (DMSO) | acetylated α-tubulin level | 5.98 ± 0.11 |
| O=C(Nc1ccccc1-c1cc(F)cc(F)c1)c1nccnc1C(F)(F)F | Puccinia triticina |  | wheat |  |  | EC80 | 2 to 10 mg a.i./L |
| C[C@@](CCn1ccc(-c2ccccc2)cc1=O)(C(=O)NO)S(C)(=O)=O | Acinetobacter baumannii |  |  | 31 clinical isolates |  | MIC90 | 32 µg/mL (≈ 87.8 µM) |
| C/C=C/CNC(=N)NCCCCCCCCN1CCCCCCCCNC(=N)NC1=O | Candida krusei |  |  |  |  | MIC50 | 5 µg/mL (≈ 11.5 µM) |
| O=C(Nc1ccccc1-c1ccc(Br)cc1)c1nccnc1C(F)(F)F | Blumeria graminis |  | barley |  |  | EC80 | 0.5 to 2 mg a.i./L |
| CNCCCOc1cc(F)c(-c2c(Cl)nc3ncnn3c2NCC(F)(F)F)c(F)c1 | HEK293 |  |  | 10 µM, 4 h, unit not given | relative to: vehicle (DMSO) | total α-tubulin level | 0.39 ± 0.02 |
| CC1=CCC23OC2(C)CCC2C(CN(C)C)C(=O)OC2C13.Cl (centres unmarked) |  |  | Ehrlich solid tumour model | ip and intratumoural, dose not given |  | tumour growth inhibition | 86 to 90% |
| CN(C)CCCOc1cc(F)c(-c2c(Cl)nc3ncnn3c2NCC2CCC2)c(F)c1 | HEK293 |  |  | 10 µM, 4 h, unit not given | relative to: vehicle (DMSO) | acetylated α-tubulin level | 0.37 ± 0.12 |
| O=C(Nc1ccccc1-c1ccc(F)cc1)c1nccnc1C(F)(F)F | Puccinia triticina |  | wheat |  |  | EC80 | 20 to 100 mg a.i./L |
| CC(C)C(=O)Nc1c(NC[C@H](O)[C@H](O)[C@H](O)CO)[nH]c(=O)[nH]c1=O | Bacillus subtilis lumazine synthase |  | recombinant β60 capsid | pH 7.0, Tris·HCl buffer, with: 2 constant, 1 varied |  | Ks | 3.6 ± 0.3 µM |
| COc1ccc(S(=O)(=O)Nc2ccc(NS(=O)(=O)c3ccc(OC)cc3)c3ccccc23)cc1 | Nrf2 | ARE luciferase reporter, activator |  | concentration not given |  | activity | active |
| O=C(Nc1ccccc1-c1ccc(C(F)(F)F)c(F)c1)c1nccnc1C(F)(F)F | Puccinia triticina |  | wheat |  |  | EC80 | 0.5 to 2 mg a.i./L |
| C[C@H](Nc1c(-c2c(F)cc(OCCCN)cc2F)c(Cl)nc2ncnn12)C(F)(F)F | HEK293 |  |  | 1 µM, 4 h, unit not given | relative to: vehicle (DMSO) | acetylated α-tubulin level | 17 ± 0.87 |
| CC1CC(C)(C)c2cccc(NC(=O)c3cccnc3Cl)c21 (centres unmarked) | Puccinia triticina |  | wheat |  |  | EC80 | 1 to 10 mg a.i./L |
| Cc1ccc(Nc2nc3ccccc3c3[nH]nc(N)c23)cc1 | intestinal beta-glucuronidase |  | BALB/cJ mouse | oral, dose not given, 5 consecutive days |  | inhibition | 40% |
| C[C@@H](Nc1c(-c2c(F)cc(C#CCCN(C)C)cc2F)c(Cl)nc2ncnn12)C(C)(C)C | HEK293 |  |  | 1 µM, 4 h, unit not given | relative to: vehicle (DMSO) | total α-tubulin level | 0.94 ± 0.01 |
| O=C(Nc1ccccc1-c1ccc(Cl)c(Cl)c1)c1nccnc1C(F)(F)F | Blumeria graminis |  | barley |  |  | EC80 | 2 to 10 mg a.i./L |
| O=C1NCCN1CC(O)Cn1c2ccc(F)cc2c2cc(F)ccc21 (centres unmarked) | DGC | cell viability |  |  |  | EC50 | 68.4 µM |

Repeated from above:
| Structure (SMILES) | target or system | test | test system | setting | how to read | endpoint | result |
| --- | --- | --- | --- | --- | --- | --- | --- |
| O=C(Nc1ccccc1-c1ccc(Cl)cc1)c1nccnc1C(F)(F)F | Botrytis cinerea |  | cucumber |  |  | EC80 | 2 to 10 mg a.i./L |
| CNCCCOc1cc(F)c(-c2c(Cl)nc3ncnn3c2NCC(F)(F)F)c(F)c1 | HEK293 |  |  | 10 µM, 4 h, unit not given | relative to: vehicle (DMSO) | total α-tubulin level | 0.39 ± 0.02 |
